Experimental data pooled from the literature.
± gives the spread as reported.
APP Aβ42 fibrils: Amyloid-beta precursor protein, Aβ42 fibrils (APP, Homo sapiens, UniProt P05067)
Chain of UniProt P05067 (whole entry, looked up): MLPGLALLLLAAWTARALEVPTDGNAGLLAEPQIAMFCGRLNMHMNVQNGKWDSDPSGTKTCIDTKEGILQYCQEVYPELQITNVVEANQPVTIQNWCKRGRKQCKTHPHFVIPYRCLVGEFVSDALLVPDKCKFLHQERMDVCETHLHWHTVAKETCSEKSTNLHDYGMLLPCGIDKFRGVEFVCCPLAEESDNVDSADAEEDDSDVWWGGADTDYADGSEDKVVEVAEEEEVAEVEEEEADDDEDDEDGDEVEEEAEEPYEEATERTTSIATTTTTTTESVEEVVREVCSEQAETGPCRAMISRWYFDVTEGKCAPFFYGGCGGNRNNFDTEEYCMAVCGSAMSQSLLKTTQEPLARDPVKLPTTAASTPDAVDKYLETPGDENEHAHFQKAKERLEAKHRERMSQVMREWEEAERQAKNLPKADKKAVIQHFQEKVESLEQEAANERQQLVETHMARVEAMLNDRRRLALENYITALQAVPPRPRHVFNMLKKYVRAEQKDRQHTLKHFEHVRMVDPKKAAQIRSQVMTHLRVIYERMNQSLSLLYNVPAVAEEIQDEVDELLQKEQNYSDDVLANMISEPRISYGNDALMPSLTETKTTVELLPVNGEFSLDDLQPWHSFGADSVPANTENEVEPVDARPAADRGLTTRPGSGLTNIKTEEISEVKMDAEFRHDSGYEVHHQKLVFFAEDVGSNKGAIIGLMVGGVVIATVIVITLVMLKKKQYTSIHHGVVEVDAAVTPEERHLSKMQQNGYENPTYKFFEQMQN
APP: Amyloid-beta precursor protein (APP, Homo sapiens, UniProt P05067)

SMILES = [Cu+2].c1cc2nc(c1)CSCc1cc(-c3nc4ccccc4s3)cc(n1)CSC2; target = APP Aβ42 fibrils; test = amyloid-beta 42 binding, thioflavin T competition; conditions = pH 7.4; measurement = Ki; value = 0.53 ± 0.06 µM
SMILES = COC(=O)CN1CCN(Cc2cc(-c3nc4ccccc4s3)cc(OC)c2O)CCN(Cc2cc(-c3nc4ccccc4s3)cc(OC)c2O)CC1; target = APP; test = ligand displacement, fluorescence; measurement = Ki; value = 0.86 µM
SMILES = [Cu+2].c1cc2nc(c1)CSCc1cccc(n1)CSC2; target = APP Aβ42 fibrils; test = amyloid-beta 42 binding, thioflavin T competition; conditions = pH 7.4; measurement = Ki; value = 4.07 ± 2.13 µM
SMILES = CCCC[C@@H]1NC(=O)[C@@H](CC(C)C)NC(=O)[C@H](CCCCN)NC(=O)[C@@H](CO)NC(=O)[C@H](Cc2c[nH]cn2)NC(=O)[C@@H](Cc2c[nH]c3ccccc23)NC1=O; target = Amyloid-beta precursor protein, Aβ42 (APP, Homo sapiens, UniProt P05067); test = binding, surface plasmon resonance; system = PBS-T, 1% DMSO; conditions = 25 °C; measurement = Kd; value = 4 µM
SMILES = COc1cc(/C=C/c2cc(-[c-]3cccc3)n(C(=O)c3ccccc3)n2)ccc1O.[Fe+2].c1cc[cH-]c1; target = APP; test = amyloid aggregation, inhibitor, fluorescence; conditions = pH 6.9; measurement = IC50; value = 23.5 µM
SMILES = CC(C)(C)N1Cc2cccc(n2)CN(C(C)(C)C)Cc2cc(-c3nc4ccccc4s3)cc(n2)C1; target = APP Aβ42 fibrils; test = amyloid-beta 42 binding, thioflavin T competition; conditions = pH 7.4; measurement = Ki; value = 0.07 ± 0.03 µM
SMILES = COc1cc(/C=C/C(=O)C2=C(/C=C/c3ccc(O)c(OC)c3)NC(=O)NC2[c-]2cccc2)ccc1O.[Fe+2].c1cc[cH-]c1 (racemic); target = APP; test = amyloid aggregation, inhibitor, fluorescence; conditions = pH 6.9; measurement = IC50; value = 4 µM
SMILES = COc1cc(-c2nc3ccccc3s2)cc(CN2Cc3cccc(n3)CN(Cc3cc(-c4nc5ccccc5s4)cc(OC)c3O)Cc3cccc(n3)C2)c1O; target = Amyloid-beta precursor protein, Aβ40 fibrils (APP, Homo sapiens, UniProt P05067); test = amyloid-β fibril binding, direct fluorescence; conditions = Aβ 5 µM; measurement = Kd; value = 0.6 µM
SMILES = COc1cc(C=Cc2cc(-[c-]3cccc3)n(C(=O)[c-]3cccc3)n2)ccc1O.[Fe+2].[Fe+2].c1cc[cH-]c1.c1cc[cH-]c1; target = APP; test = amyloid aggregation, inhibitor, fluorescence; conditions = pH 6.9; measurement = IC50; value = 30 µM
SMILES = Clc1ccc2c(c1)N(CCCN1CCN(CCn3cc(CN4CCCNCCN(Cc5cn(CCN6CCN(CCCN7c8ccccc8Sc8ccc(Cl)cc87)CC6)nn5)CCCNCC4)nn3)CC1)c1ccccc1S2.[Cu+2].[O-][Cl+3]([O-])([O-])[O-].[O-][Cl+3]([O-])([O-])[O-]; target = Amyloid-beta precursor protein, Aβ42 monomer (APP, Homo sapiens, UniProt P05067); test = aggregation kinetics fit; measurement = Kd; value = 7.4 µM
SMILES = COc1cc(-c2nc3ccccc3s2)cc(CN2CCN(CC(=O)O)CCN(Cc3cc(-c4nc5ccccc5s4)cc(OC)c3O)CC2)c1O; target = APP; test = ligand displacement, fluorescence; measurement = Ki; value = 0.55 µM
